Published values gathered from unrelated publications.
Each line is one published result; not all experiments were run side by side. ± marks the error that the study gave.

| SMILES | target | assay | system | setting | IC50 |
| --- | --- | --- | --- | --- | --- |
| O=C(NCNC(=O)NC1C(=O)NC(=O)N1CO)NC1C(=O)NC(=O)N1CO (centres unmarked) | cysteine peptide Ac-RFAACAA-COOH | peptide depletion, DPRA RapidFire-MS/MS |  | 24 h, pH 7.5, room temperature, with: 5.0 µM cysteine peptide | inactive |
| CC[C@H](C)[C@@H]1C(=O)O[C@H]1C(=O)NCC(=O)N[C@H](C(=O)OCc1ccccc1)C(C)C | human proteasome β2 subunit |  |  |  | 0.261 ± 0.008 µM |
| Cc1cc2c(C(C)C)c(O)c(O)c(C=O)c2c(O)c1-c1c(C)cc2c(C(C)C)c(O)c(O)c(C=O)c2c1O | class IIb HDAC | enzyme activity | bovine heart lysate |  | 10 µM |
| NC[C@H]1O[C@H](O[C@H]2[C@H](O)[C@@H](O[C@H]3O[C@H](CO)[C@@H](O)[C@H](N)[C@H]3O)[C@H](N)C[C@@H]2N)[C@H](N)C[C@@H]1O | Mycobacterium smegmatis 70S ribosome | phenylalanine incorporation, inhibitor, cell-free translation | hybrid ribosomes 0.25 µM | 60 min, 37 °C, with: (UUU)12 mRNA | 2.3 µM |
| O=C(CCCCCCC(=O)Nc1ccccc1)NO | HDAC (HeLa nuclear extract) | enzyme activity, inhibitor |  |  | 0.146 ± 0.0076 µM |
| CC[C@H](C)[C@@H]1C(=O)O[C@H]1C(=O)N[C@@H](Cc1ccccc1)C(=O)N[C@@H](Cc1ccccc1)C(=O)OCc1ccccc1 | human proteasome β2 subunit |  |  |  | 2.71 ± 0.13 µM |
| COC[C@@H](NC(C)=O)C(=O)NCc1ccc(OCc2cccc(F)c2)cc1 | voltage-gated sodium channel | peak sodium current, inhibitor, whole-cell patch clamp | CAD | 0 mV from -80 mV holding | 13.6 ± 4.1 µM |
| O=C(Nc1ccc(F)cc1)c1ccc(N(Cc2ccc(B(O)O)cn2)Cc2ccco2)nc1 | CXCR1/CXCR2 human | calcium flux, antagonist | human neutrophils | with: IL-8 | 0.321 ± 0.096 µM |
| O=C(Nc1cccnn1)N1CCN([C@@H]2CCOc3cc(C(F)(F)F)ccc32)CC1 | sigma receptor, non-selective | binding |  |  | 14 µM |
| O=C(NC(=O)c1ccccc1Cl)Nc1ccc(Cl)cc1 | mAb-19F2 (BALB/c mouse monoclonal antibody) | antibody binding, indirect competitive ELISA |  |  | > 1 µg/mL |
| C/C=C1\NC(=O)[C@@H](NC(=O)[C@@H](NC(=O)C/C(=C/Cl)CC)C(C)C)[C@@H](C)OC(=O)[C@H](C(C)C)NC(=O)[C@H](Cc2ccc(O)cc2)N(C)C(=O)[C@H](Cc2ccccc2)N2C(=O)[C@H](CC[C@H]2O)NC1=O | bovine trypsin | enzyme activity, inhibitor |  | 30 min, pH 7.4, 22 °C, with: Z-Leu-Arg-Arg-AMC | > 20 µM |
| CCc1c(C(=O)NCCc2ccc(N3CCCCC3)cc2)[nH]c2ccc(Cl)cc12 | cannabinoid receptor 1 | ERK phosphorylation, negative allosteric modulator |  | mean over cells and agonists | 0.213 µM |
| FC(F)(F)c1ccc(OCCCOc2c(Cl)cc(OCC=C(Cl)Cl)cc2Cl)nc1 | mAb-19F2 (BALB/c mouse monoclonal antibody) | antibody binding, indirect competitive ELISA |  |  | > 1 µg/mL |
| NCC1OC(OC2C(CO)OC(OC3C(O)C(N)CC(N)C3OC3OC(CO)C(OCCCc4ccccc4)C(O)C3N)C2O)C(N)C(O)C1O (centres unmarked) | Mycobacterium smegmatis ribosome wild type | translation, cell-free luciferase synthesis |  |  | 0.2 ± 0.07 µg/mL |
| CC(C)[C@H](NC(=O)[C@@H]1OC(=O)[C@H]1C1CCCC1)C(=O)N[C@H](C(=O)OCc1ccccc1)C(C)C | human proteasome β2 subunit |  |  |  | 7.47 ± 0.748 µM |
| CCCSc1ccc2nc(NC(=O)OC)[nH]c2c1 | human HDAC class I/II | enzyme activity, inhibitor, HDAC-Glo I/II | HCT-116 |  | 9.44 µM |
| C=Cc1ccccn1 | cysteine peptide Ac-RFAACAA-COOH | peptide depletion, DPRA RapidFire-MS/MS |  | 24 h, pH 7.5, room temperature, with: 5.0 µM cysteine peptide | inactive |

Some of these lines once more:
| SMILES | target | assay | system | setting | IC50 |
| --- | --- | --- | --- | --- | --- |
| CC[C@H](C)[C@@H]1C(=O)O[C@H]1C(=O)N[C@@H](Cc1ccccc1)C(=O)N[C@@H](Cc1ccccc1)C(=O)OCc1ccccc1 | human proteasome β2 subunit |  |  |  | 2.71 ± 0.13 µM |
